Measurements gathered from unrelated publications.
Every numbered part comes from another study and shows a few of its results, in no order. Values joined by “and” are separate records of one study, mostly repeats; a detail may differ. Changes are numbered by the printed parent chain.
UniProt Q9NWH9, sequence (360-485, looked up): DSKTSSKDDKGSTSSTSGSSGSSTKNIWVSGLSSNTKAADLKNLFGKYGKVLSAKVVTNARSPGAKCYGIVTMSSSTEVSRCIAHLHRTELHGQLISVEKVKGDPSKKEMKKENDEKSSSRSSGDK

Study 1 — target: inorganic phosphate, free oxyanion; method: microfluidic competitive inhibition; medium: in vitro, cell-free expressed; tested at: not given; direction: lower = stronger binding
Setting: derived from inhibition constants, unchanged parent 615000 nM
Starting sequence: PafA, mature enzyme, eGFP fusion (Elizabethkingia meningoseptica, UniProt Q9KJX5); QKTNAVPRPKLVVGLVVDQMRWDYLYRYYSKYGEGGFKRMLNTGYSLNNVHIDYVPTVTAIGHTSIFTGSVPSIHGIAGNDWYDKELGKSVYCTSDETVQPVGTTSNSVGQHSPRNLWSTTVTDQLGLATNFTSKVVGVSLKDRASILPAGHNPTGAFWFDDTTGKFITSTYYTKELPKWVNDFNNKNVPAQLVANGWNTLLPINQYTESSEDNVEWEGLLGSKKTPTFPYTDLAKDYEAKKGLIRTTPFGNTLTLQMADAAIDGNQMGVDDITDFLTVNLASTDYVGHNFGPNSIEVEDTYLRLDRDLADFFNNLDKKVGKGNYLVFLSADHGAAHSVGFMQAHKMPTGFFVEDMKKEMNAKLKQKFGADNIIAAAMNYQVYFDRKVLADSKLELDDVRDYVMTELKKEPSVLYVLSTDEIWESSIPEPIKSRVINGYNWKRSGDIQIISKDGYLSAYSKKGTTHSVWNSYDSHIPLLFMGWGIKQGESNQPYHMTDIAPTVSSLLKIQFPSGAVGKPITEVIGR
| Substitution | phosphate dissociation constant [µM] |
| --- | --- |
| P512V | 349 |
| I422V | 647 |
| G517V | 264 |
| K166G | 586 |
| S330G | 765 |
| S504V | 605 |
| F167V | 601 |
| N186G | 545 |

Study 2 — target: CCNE2, cyclin fold, Cln2 fusion (human); method: yeast growth competition, sequencing; medium: yeast; setting: strong parent motif; reference: not given; direction: higher = stronger binding
Starting sequence: viral docking peptide; TSVRRALFTGGSD; partner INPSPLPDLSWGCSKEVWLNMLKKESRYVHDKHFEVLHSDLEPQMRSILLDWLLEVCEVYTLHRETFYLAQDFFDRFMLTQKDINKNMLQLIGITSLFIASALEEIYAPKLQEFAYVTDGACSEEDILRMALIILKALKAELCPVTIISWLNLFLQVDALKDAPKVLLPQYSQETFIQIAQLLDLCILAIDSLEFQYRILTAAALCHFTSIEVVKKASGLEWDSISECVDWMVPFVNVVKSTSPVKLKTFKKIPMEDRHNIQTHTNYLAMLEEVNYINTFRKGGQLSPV
| Substitution | normalised enrichment score |
| --- | --- |
| TSVRRALFTGSSD [G11S] | 3.96 |
| TSVRRALFTGISD [G11I] | 3.43 |
| TPVRRALFTGGSD [S2P] | 2.73 |
| TSVRRALFLGGSD [T9L] | 3.31 |
| TSVRRDLFTGGSD [A6D] | 0.545 |
| TSVRRALFTGGWD [S12W] | 3.76 |
| TSVRRALFTFGSD [G10F] | 2.21 |
| TSNRRALFTGGSD [V3N] | 0.0365 |

Other studies, line by line
| Substance | target or system | test | system | setting | scale | endpoint | value |
| --- | --- | --- | --- | --- | --- | --- | --- |
| O=C1CCC(N2Cc3c(ccc4c3OCC43CCN(Cc4ccccc4)CC3)C2=O)C(=O)N1 (stereo not drawn) | – | – | Sprague Dawley rat, male, plasma | oral, 3 mg/kg, 1 h | – | plasma concentration | 0.107 µg/mL and 0.0822 µg/mL |
| AAAAAAAA (biotin) | SAFB-like transcription modulator, RRM domain (SLTM, Homo sapiens, UniProt Q9NWH9, residues 360-485) | protein domain microarray | RNA, in vitro | not given, poly(A) 8-mer RNA, whole probe, immobilized GST-fusion domains, most near background | reference: GST loading signal, higher = stronger binding | signal ratio | 0.0377 |

Repeated from above (study 2):
| Substitution | normalised enrichment score |
| --- | --- |
| TSVRRALFTGGWD [S12W] | 3.76 |
| TSVRRALFTFGSD [G10F] | 2.21 |
| TSNRRALFTGGSD [V3N] | 0.0365 |
